Assay results of several laboratories.
Lines come from different studies, so protocols differ. pEC50, pIC50: −log10 of the molar value.
Cell line: HT-1080

Structure (SMILES)	test	conditions	measurement	value
COc1ccc(/N=N/C(=S)N2CCCC2)cc1	cell growth or viability, resazurin	48 h	pIC50	< 4.30
CCNC(=O)Nc1ccc(S(=O)(=O)Oc2ccccc2CC)cc1	cell growth or viability, SRB	48 h	pIC50	6.43
COC(=O)C1CN1S(=O)(=O)c1ccc2c(C=O)c(N(C)C)ccc2c1 (stereo not shown)	cell growth or viability, MTT	48 h	pIC50	5.10
CC(C)C[C@@H](/C=C/CC(=O)N1CCC[C@H]1C(=O)N[C@H](C(=O)N[C@@H](CCCNC(=O)OCc1ccccc1)C(=O)NC1CC(C)(C)N([O])C(C)(C)C1)C(C)C)NC(=O)OCC[S+]([O-])CC1(C)COC1 (stereo partly shown)	protection from ferroptosis, PrestoBlue	24 h, added: erastin 10 µM	pEC50	< 5.00
CC/C(=C(\c1ccccc1)c1ccc(OCCN(C)CCCCC(=O)NCCc2c[nH]c3ccc(OC)cc23)cc1)c1ccccc1	cell survival, MTT	day 9, dosed days 2, 4, 7	pIC50	5.16
COc1ccc(/N=N/C(=S)N2CCOCC2)cc1	cell growth or viability, resazurin	48 h	pIC50	< 4.30
CC/C(=C(\c1ccccc1)c1ccc(OCCN(C)CCCCCC(=O)NCCc2c[nH]c3ccc(OC)cc23)cc1)c1ccccc1	cell survival, MTT	day 9, dosed days 2, 4, 7	pIC50	4.84
CC(C)C[C@@H]1NC(=O)[C@H](CC(C)C)NC(=O)[C@H](Cc2ccccc2)NC(=O)[C@@H]2CSSC[C@@H](C(=O)O)NC(=O)[C@H](CSSC[C@H](N)C(=O)N3CCC[C@H]3C(=O)N2)NC(=O)CNC1=O	–	concentration not given, added: fibronectin or fibrinogen	cell adhesion	no effect
CC(C)C[C@@H](/C=C/[C@H](Cc1ccccc1)C(=O)N1CCC[C@H]1C(=O)N[C@H](C(=O)N[C@@H](CCCNC(=O)OCc1ccccc1)C(=O)NC1CC(C)(C)N([O])C(C)(C)C1)C(C)C)NC(=O)OCC[S+]([O-])CC1(C)COC1 (stereo partly shown)	protection from ferroptosis, PrestoBlue	24 h, added: erastin 10 µM	pEC50	5.46
Cc1cc(C)nc(NC(=S)N2CCN(Cc3ccc(C(F)(F)F)cc3)CC2)c1	cell viability, CellTiter-Glo	4 days	pEC50	4.85

For quick reference, copied from above:
Structure (SMILES)	test	conditions	measurement	value
Cc1cc(C)nc(NC(=S)N2CCN(Cc3ccc(C(F)(F)F)cc3)CC2)c1	cell viability, CellTiter-Glo	4 days	pEC50	4.85
